Results from different studies.
A part holds a random share of what one study measured.

Set 1
Target: Histone acetyltransferase KAT6A, both winged helices, GST fusion (KAT6A, Homo sapiens, UniProt Q92794, residues 1-181)
Technique: protein binding microarray
Form: double-stranded DNA, one strand shown
Sample: in vitro
Tested at: not given
Setting: 8-mer, flanks averaged, mean of 2 arrays, mostly near background
Baseline: not given
Direction: higher = stronger binding
Construct (chain): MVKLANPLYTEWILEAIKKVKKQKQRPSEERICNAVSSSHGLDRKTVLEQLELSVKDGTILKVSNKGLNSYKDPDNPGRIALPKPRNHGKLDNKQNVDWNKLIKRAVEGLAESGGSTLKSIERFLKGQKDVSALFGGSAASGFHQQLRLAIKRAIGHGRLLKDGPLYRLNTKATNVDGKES
Sequence	E-score
CCCAACAC	-0.115
CGAGTCGA	-0.0453
GTAGGAAC	-0.0997
ATATGACC	-0.128

Set 2
Target: RING finger protein unkempt homolog, zinc fingers 1-6, GST-SBP tag (UNK, Homo sapiens, UniProt Q9C0B0, residues 30-357)
Sequence of UniProt Q9C0B0 (30-357, looked up): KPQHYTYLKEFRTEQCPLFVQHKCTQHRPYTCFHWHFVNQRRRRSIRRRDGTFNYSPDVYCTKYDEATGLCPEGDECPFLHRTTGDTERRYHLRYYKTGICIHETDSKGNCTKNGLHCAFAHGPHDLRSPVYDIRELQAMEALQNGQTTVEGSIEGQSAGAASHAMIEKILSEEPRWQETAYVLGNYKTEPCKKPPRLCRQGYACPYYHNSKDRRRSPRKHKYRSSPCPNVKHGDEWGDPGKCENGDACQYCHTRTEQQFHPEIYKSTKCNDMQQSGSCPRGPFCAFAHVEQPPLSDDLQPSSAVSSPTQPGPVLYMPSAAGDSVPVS
Technique: RNA Bind-n-Seq
Form: RNA
Sample: in vitro
Tested at: not given
Setting: RNA with constant flanks, human-mouse chimeric sites, ends assumed
Baseline: input RNA pool
Direction: higher = stronger binding
Sequence	bound/input enrichment [ratio]
GGGAGUUCUACAGUCCGACGAUCUGUGAACUGUCUCUUGAGAUCUAAAAACAAGAUGACUUUUCCUGGCACAUAUUUCAAAGCAAAGACUUUGUUACCUGCUGCUUAUUGUCUAAUUUACAGGGAUAUUUAAUUUUGUCAGGUCAACAGAGGAUUGAGCAUCA	0.162
GGGAGUUCUACAGUCCGACGAUCCAGUCCCCGUGUCCCAGUGCAGGACGAUGUGAACAAAAACUCAAAGCGGACCCUCUAUUGUAGUUCUUGAUUCUCGAGUGCCAUUAUUAUUGUUUGUCUUUUUUUUUUUUUUUUUAAAGACAACAGAGGAUUGAGCAUCA	1.19
GGGAGUUCUACAGUCCGACGAUCGGGACUGAUUCAUCCCAAGGACAGGCAACCCCAUUUGAUGCCUGGACUGAUGACAGUAUGGAAGGGCCUAGUCAAAAUGUUGAAGCUGAGUCAAUUCAGGAUGCCAUGCAUAUGGCAGAGCAACAGAGGAUUGAGCAUCA	0.241

Set 3
Target: Interferon regulatory factor 5, full length, phosphomimetic (IRF5, Homo sapiens, UniProt Q13568-2, residues 1-514, K96S/S451D/S453D/S456D/S462D)
Technique: protein-binding microarray
Form: double-stranded DNA, one strand shown
Sample: in vitro
Tested at: 250 nM
Setting: 60-bp whole probe
With: salmon DNA 0.4 mg/ml
Baseline: random background probes
Direction: higher = stronger binding
Sequence	log fluorescence [z-score]
GCCTAGCACGACGATCTCAGCCTGGAGACGTGCTAGGTCTTGATTCGCTTGACGCTGCTG	-0.236
GCCTAGCACTCATCCATGGGTATGGCACTGTGCTAGGTCTTGATTCGCTTGACGCTGCTG	-0.00759
GCCTAGCACGACGGTCGCGGTTTCGGGACGTGCTAGGTCTTGATTCGCTTGACGCTGCTG	2.04
GCCTAGCACGACGGTATCCTTTTTCTGACGTGCTAGGTCTTGATTCGCTTGACGCTGCTG	0.547

Other studies, line by line
Substance	target	assay	system	conditions	how to read	measurement	result
PhoQ, residues 284 288 289 292 302 303 TNSAEL	PhoP, residues 12 14 15 18 19 SPWRL (Escherichia coli, UniProt P23836)	Sort-seq, refers to: YFP reporter	E. coli	PhoQ-PhoP variant library, with: 10 µM Mg2+	baseline: high Mg2+ state, higher = stronger signaling	fold induction	0.892
